Published values collected from several papers.
Numbers after ± are the reported error.
Ryanodine receptor 1: Ryanodine receptor 1 (Oncorhynchus mykiss, UniProt A0A8C7UX14)
Oprd1: Delta-type opioid receptor (Oprd1, Rattus norvegicus, UniProt P33533)
Sequence of UniProt P33533 (whole entry, looked up): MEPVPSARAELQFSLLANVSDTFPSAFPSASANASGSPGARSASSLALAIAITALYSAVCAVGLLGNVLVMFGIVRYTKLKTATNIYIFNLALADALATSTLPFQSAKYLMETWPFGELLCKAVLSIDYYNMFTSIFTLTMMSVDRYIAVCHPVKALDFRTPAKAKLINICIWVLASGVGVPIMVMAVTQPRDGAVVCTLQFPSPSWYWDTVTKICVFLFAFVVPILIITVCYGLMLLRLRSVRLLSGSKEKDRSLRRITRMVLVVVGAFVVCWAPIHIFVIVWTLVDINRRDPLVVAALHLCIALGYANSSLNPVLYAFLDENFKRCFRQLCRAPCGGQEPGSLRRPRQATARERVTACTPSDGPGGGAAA
CNR1: Cannabinoid receptor 1 (CNR1, Homo sapiens, UniProt P21554)
Sequence of UniProt P21554 (whole entry, looked up): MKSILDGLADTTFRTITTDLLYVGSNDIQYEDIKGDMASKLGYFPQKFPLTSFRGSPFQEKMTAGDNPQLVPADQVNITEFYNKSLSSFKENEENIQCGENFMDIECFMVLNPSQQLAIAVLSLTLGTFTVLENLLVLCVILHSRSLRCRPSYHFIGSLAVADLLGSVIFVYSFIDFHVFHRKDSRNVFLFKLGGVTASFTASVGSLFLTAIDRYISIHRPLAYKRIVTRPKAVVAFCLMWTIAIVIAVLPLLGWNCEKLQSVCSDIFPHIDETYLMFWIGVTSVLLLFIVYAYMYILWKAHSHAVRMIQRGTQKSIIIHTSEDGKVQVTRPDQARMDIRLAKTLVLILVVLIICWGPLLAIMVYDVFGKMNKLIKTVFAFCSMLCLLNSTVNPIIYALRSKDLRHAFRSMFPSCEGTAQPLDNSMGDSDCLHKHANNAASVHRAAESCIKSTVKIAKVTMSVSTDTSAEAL
Gabrg2/Gabra1 with β3 subunit: Gabrg2/Gabra1, with β3 subunit (Rattus norvegicus, UniProt P18508+P62813)
Sequence of UniProt P18508 (whole entry, looked up): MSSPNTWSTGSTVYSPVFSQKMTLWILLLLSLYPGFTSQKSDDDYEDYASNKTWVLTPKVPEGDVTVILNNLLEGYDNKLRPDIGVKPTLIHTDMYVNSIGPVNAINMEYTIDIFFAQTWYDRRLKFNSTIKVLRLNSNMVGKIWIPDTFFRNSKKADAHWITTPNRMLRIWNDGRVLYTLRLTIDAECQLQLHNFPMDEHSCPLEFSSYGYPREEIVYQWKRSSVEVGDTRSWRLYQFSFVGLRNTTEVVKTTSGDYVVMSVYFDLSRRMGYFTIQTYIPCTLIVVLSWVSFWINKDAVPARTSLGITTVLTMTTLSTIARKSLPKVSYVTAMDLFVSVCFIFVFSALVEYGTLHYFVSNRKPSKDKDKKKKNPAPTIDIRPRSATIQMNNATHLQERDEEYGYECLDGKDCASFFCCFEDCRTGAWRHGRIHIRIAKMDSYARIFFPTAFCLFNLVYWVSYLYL
Sequence of UniProt P62813 (whole entry, looked up): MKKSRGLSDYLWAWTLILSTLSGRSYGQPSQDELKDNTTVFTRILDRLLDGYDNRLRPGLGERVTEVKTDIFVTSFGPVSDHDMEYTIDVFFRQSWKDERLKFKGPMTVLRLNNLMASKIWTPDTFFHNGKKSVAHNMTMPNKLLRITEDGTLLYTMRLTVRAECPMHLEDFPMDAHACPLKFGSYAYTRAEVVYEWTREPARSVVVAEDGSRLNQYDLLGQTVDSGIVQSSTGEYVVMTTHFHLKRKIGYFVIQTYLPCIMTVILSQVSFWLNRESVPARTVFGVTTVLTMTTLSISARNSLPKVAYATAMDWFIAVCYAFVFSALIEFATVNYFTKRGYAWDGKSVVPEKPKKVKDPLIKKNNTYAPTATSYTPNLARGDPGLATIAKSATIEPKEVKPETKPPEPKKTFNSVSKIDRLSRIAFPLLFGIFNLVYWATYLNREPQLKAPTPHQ
Sequence of UniProt P28471 (whole entry, looked up): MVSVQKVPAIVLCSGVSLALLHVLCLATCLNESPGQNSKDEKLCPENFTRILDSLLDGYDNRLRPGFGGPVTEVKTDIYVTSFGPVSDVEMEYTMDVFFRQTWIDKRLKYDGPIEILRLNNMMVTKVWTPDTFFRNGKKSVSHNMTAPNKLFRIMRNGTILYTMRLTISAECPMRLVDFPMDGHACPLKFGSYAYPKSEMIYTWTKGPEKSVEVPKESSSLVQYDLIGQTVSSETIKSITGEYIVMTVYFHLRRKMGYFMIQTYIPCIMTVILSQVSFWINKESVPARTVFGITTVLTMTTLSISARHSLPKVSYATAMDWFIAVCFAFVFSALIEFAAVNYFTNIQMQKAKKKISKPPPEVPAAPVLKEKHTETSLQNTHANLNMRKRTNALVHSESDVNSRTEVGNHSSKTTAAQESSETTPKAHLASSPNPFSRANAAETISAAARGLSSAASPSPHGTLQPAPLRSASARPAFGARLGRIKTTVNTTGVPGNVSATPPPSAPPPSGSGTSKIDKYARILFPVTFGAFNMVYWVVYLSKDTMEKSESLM

Compound | tested on | assay | system | conditions | scale | quantity | value
Clc1ccc(Cl)c(-c2c(Cl)c(Cl)cc(Cl)c2Cl)c1 | Ryanodine receptor 1 | [3H]ryanodine binding, activator | trout muscle microsomes | concentration not given | relative to: DMSO | Emax | > 160%
NC(=O)[C@@H]1CSCSC[C@@H](NC(=O)[C@@H](N)Cc2ccc(O)cc2)C(=O)N[C@@H](Cc2cccc3ccccc23)C(=O)N[C@@H](Cc2ccccc2)C(=O)N1 | Oprd1 | G-protein activation, agonist | C6 cell membranes | – | relative to: SNC80 at 10 µM | Emax | 15 to 23%
CC(C)(C)c1cc(C(C)(C)C)c(NC(=O)c2c[nH]c3ccccc3c2=O)cc1O | CFTR (Homo sapiens, UniProt P13569, del508-508) | chloride current, potentiator, Ussing chamber | CFBE41o- F508del | 3 µM, with: VX-809 24 h | relative to: reference potentiator | Emax | 100%
Clc1ccc(Cl)c(-c2cccc(Cl)c2Cl)c1 | Ryanodine receptor 1 | [3H]ryanodine binding, activator | trout muscle microsomes | concentration not given | relative to: DMSO | Emax | > 160%
CN[C@@](C)(C[18F])C(=O)O | A549 tumour model | – | host not given, pancreas | 15 min, tumour-bearing | – | tracer uptake | 56 %ID/g
CC(C)(CN1CCC[C@H]1C(N)=O)NC(=O)c1nn(Cc2ccc(F)cc2)c2ccccc12 | CNR1 | calcium mobilization, agonist | CHO-K1 expressing Gαq16 | – | relative to: CP55,940 maximum | Emax | 96 ± 1%
NC(=O)[C@@H]1CSSC[C@@H](NC(=O)[C@@H](N)Cc2ccc(O)cc2)C(=O)N[C@@H](Cc2ccccc2)C(=O)N[C@@H](Cc2cccc3ccccc23)C(=O)N1 | Oprd1 | G-protein activation, agonist | C6 cell membranes | – | relative to: SNC80 at 10 µM | Emax | 15 to 23%
CC(C)(NC(=O)c1nn(CC2CCCC2)c2ccccc12)c1cccc(C(N)=O)c1 | CNR1 | calcium mobilization, agonist | CHO-K1 expressing Gαq16 | – | relative to: CP55,940 maximum | Emax | 67 ± 4%
Clc1ccc(Cl)c(-c2c(Cl)ccc(Cl)c2Cl)c1 | Ryanodine receptor 1 | [3H]ryanodine binding, activator | trout muscle microsomes | concentration not given | relative to: DMSO | Emax | ~250%
C[C@@H](NC(=O)c1nn(Cc2ccc(F)cc2)c2ccccc12)c1cccc(C(N)=O)c1 | CNR1 | calcium mobilization, agonist | CHO-K1 expressing Gαq16 | – | relative to: CP55,940 maximum | Emax | 23 ± 2%
CC(C)(C)OC(=O)c1ncn2c1[C@@H]1CCCN1C(=O)c1c(Br)cccc1-2 | Gabrg2/Gabra1 with β3 subunit | GABA-induced chloride current, two-electrode voltage clamp | Xenopus oocytes | with: GABA at EC3 | – | Emax | 138 ± 10%
Clc1ccc(-c2c(Cl)ccc(Cl)c2Cl)cc1Cl | Ryanodine receptor 1 | [3H]ryanodine binding | rainbow trout, skeletal muscle microsomes | up to 20 µM | relative to: DMSO | Emax | 120 ± 4.44%
CNC(=O)c1cc2c(cn1)[nH]c1ccccc12 | Gabrg2/Gabra1 with β3 subunit | GABA-induced chloride current, two-electrode voltage clamp | Xenopus oocytes | with: GABA at EC3 | – | Emax | 88 ± 5%
CC(C)(NC(=O)c1nn(Cc2ccc(F)cc2F)c2ccccc12)c1cccc(C(N)=O)c1 | CNR1 | calcium mobilization, agonist | CHO-K1 expressing Gαq16 | – | relative to: CP55,940 maximum | Emax | ~32%
CCOC(=O)c1ncn2c1CN(C)C(=O)c1cc(F)ccc1-2 | Gabrg2/Gabra4, with β3 subunit (Rattus norvegicus, UniProt P18508+P28471) | GABA-induced chloride current, two-electrode voltage clamp | Xenopus oocytes | rat α4β3γ2 receptor, with: GABA EC3 | relative to: GABA EC3 alone | Emax | 181 ± 10%
Brc1ccc(Oc2cc(Br)ccc2Br)c(Br)c1 | Ryanodine receptor 1 | [3H]ryanodine binding, activator | trout muscle microsomes | concentration not given | relative to: DMSO | Emax | 167%
CC(C)(NC(=O)c1nn(Cc2ccc(F)cc2)c2ccccc12)C1CCCN(CC(N)=O)C1 (centres unmarked) | CNR1 | calcium mobilization, agonist | CHO-K1 expressing Gαq16 | – | relative to: CP55,940 maximum | Emax | 44 ± 4%

Some of these lines once more:
Compound | tested on | assay | system | conditions | scale | quantity | value
CC(C)(NC(=O)c1nn(Cc2ccc(F)cc2F)c2ccccc12)c1cccc(C(N)=O)c1 | CNR1 | calcium mobilization, agonist | CHO-K1 expressing Gαq16 | – | relative to: CP55,940 maximum | Emax | ~32%
CNC(=O)c1cc2c(cn1)[nH]c1ccccc12 | Gabrg2/Gabra1 with β3 subunit | GABA-induced chloride current, two-electrode voltage clamp | Xenopus oocytes | with: GABA at EC3 | – | Emax | 88 ± 5%
